{"data": "Measurements gathered from unrelated publications", "method": "steady-state kinetics", "B1": "NUDT12 (Homo sapiens, UniProt Q9BQG2); chain MSSVKRSLKQEIVTQFHCSAAEGDIAKLTGILSHSPSLLNETSENGWTALMYAARNGHPEIVQFLLEKGCDRSIVNKSRQTALDIAVFWGYKHIANLLATAKGGKKPWFLTNEVEECENYFSKTLLDRKSEKRNNSDWLLAKESHPATVFILFSDLNPLVTLGGNKESFQQPEVRLCQLNYTDIKDYLAQPEKITLIFLGVELEIKDKLLNYAGEVPREEEDGLVAWFALGIDPIAAEEFKQRHENCYFLHPPMPALLQLKEKEAGVVAQARSVLAWHSRYKFCPTCGNATKIEEGGYKRLCLKEDCPSLNGVHNTSYPRVDPVVIMQVIHPDGTKCLLGRQKRFPPGMFTCLAGFIEPGETIEDAVRREVEEESGVKVGHVQYVACQPWPMPSSLMIGCLALAVSTEIKVDKNEIEDARWFTREQVLDVLTKGKQQAFFVPPSRAIAHQLIKHWIRINPNL", "B2": "FDH1 (Arabidopsis thaliana, UniProt Q9S7E4); chain MAMRQAAKATIRACSSSSSSGYFARRQFNASSGDSKKIVGVFYKANEYATKNPNFLGCVENALGIRDWLESQGHQYIVTDDKEGPDCELEKHIPDLHVLISTPFHPAYVTAERIKKAKNLKLLLTAGIGSDHIDLQAAAAAGLTVAEVTGSNVVSVAEDELMRILILMRNFVPGYNQVVKGEWNVAGIAYRAYDLEGKTIGTVGAGRIGKLLLQRLKPFGCNLLYHDRLQMAPELEKETGAKFVEDLNEMLPKCDVIVINMPLTEKTRGMFNKELIGKLKKGVLIVNNARGAIMERQAVVDAVESGHIGGYSGDVWDPQPAPKDHPWRYMPNQAMTPHTSGTTIDAQLRYAAGTKDMLERYFKGEDFPTENYIVKDGELAPQYR", "B3": "enzyme (UniProt Q83XK4); chain MATRIAILGAGPSGMAQLRAFQSAQEKGAEIPELVCFEKQADWGGQWNYTWRTGLDENGEPVHSSMYRYLWSNGPKECLEFADYTFDEHFGKPIASYPPREVLWDYIKGRVEKAGVRKYIRFNTAVRHVEFNEDSQTFTVTVQDHTTDTIYSEEFDYVVCCTGHFSTPYVPEFEGFEKFGGRILHAHDFRDALEFKDKTVLLVGSSYSAEDIGSQCYKYGAKKLISCYRTAPMGYKWPENWDERPNLVRVDTENAYFADGSSEKVDAIILCTGYIHHFPFLNDDLRLVTNNRLWPLNLYKGVVWEDNPKFFYIGMQDQWYSFNMFDAQAWYARDVIMGRLPLPSKEEMKADSMAWREKELTLVTAEEMYTYQGDYIQNLIDMTDYPSFDIPATNKTFLEWKHHKKENIMTFRDHSYRSLMTGTMAPKHHTPWIDALDDSLEAYLSDKSEIPVAKEA", "B4": "enzyme (UniProt A0A6P1VWL4); chain QTSYQPTPDNLAARKAFQDDKFGLFIHWGVYSILGDGEWVMNQRQIPIKDYEKLPTFFNPTAFDAKEWVTMAKNAGMKYITITSKHHDGFAMYDSKVSDYDIVDRTPYKKDVLKALADECRAQGIKLFFYHSHLDWHHPDYFPRGQTGKTAGRPESGDFDKYLTYMDTQLSELLTNYGPVGGIWFDGWWDQSAHDKNDPHKTVVDWKLDRTYSLIHKLQPAALIGNNHHVAPFPGEDFQMFEKDLPGQNKTGFSGESVIGQLPLETCETMNGAWGFNIKDNRYKSTKDLVQYLVKAAGHNANFLLNVGPMPNGKIQPEFVKTLAEVGQWMQKNGETIYGTRGGPVPARDWGVTTAVGNRVFVHILNWEDRQLTLPPVSGKIRSAKLFADKSPVKVVQTPEGIVLTMNSAPSADATDTIIELEMAPEVAKK", "B5": "enzyme (Aspergillus nidulans, UniProt Q5AS09); chain MTRPIVVLGAGVLGRRIAAVLIAGGHTVHIRDPSTQALSDAASFIDAHLHEFTAITPTPHPVPGTYKAFAEISSAVAGAWLVIEAVPEKLSLKIDTFAEVDRHAPADCVIASNSSSFKSSLMVEKVGEQRKERVLNVHFTMPPQIRTVELMTNGQTRPELFESLSKMLKGCGMIPVTARKESTGFIFNRLWAAIKREIMLILAEDVSTPEEIDLLWTNMFQLPTSSPPCQLMDKIGLDTVAFIEDNYIQERGLDGSMTVDWLRKSYIDQGRLGLKSEKGGLYGPS", "B6": "enzyme (Caenorhabditis elegans, UniProt Q86D21); chain MSKAPTDMAPWPAFIEERIKLWDKLKAEYDAEIAAKESEPIQITLPDGKIHEGKTWRTTPFEIAERISKGLAEAAVIAKVNGAVWDLDRPFEGNAKLELLKFDDDEAKQVFWHSSAHVLGEAMERYCGGHLCYGPPIQEGFYYDMWHENRTICPDDFPKIDQIVKAAVKDKQKFERLEMTKEDLLEMFKYNEFKVRIITEKIHTPKTTVYRCGPLIDLCRGPHVRHTGKVKAMAITKNSSSYWEGKADAESLQRLYGISFPDSKQLKEWQKLQEEAAKRDHRKLGKEHDLFFFHQLSPGSAFWYPKGAHIYNKLVDFIRKQYRRRGFTEVITPNMYNKKLWETSGHWQHYSEDMFKIEVEKEEFGLKPMNCPGHCLMFGHMPHTYNELPFRFADFGVLHRNEMSGALTGLTRVRRFQQDDAHIFCRQDQISEEIKQCLDFLEYAYEKVFGFTFKLNLSTRPEGFLGNIETWDKAEADLTNALNASGRKWVLNPGDGAFYGPKIDITIQDALKRNFQCATIQLDFQLPNQFDLSYFDEKGEKQRPVMIHRAVLGSVERMTAILTESYGGKWPFWLSPRQCKIITVHESVRDYANDVKKQIFEAGFEIEYEENCGDTMNKQVRKAQLAQFNFILVIGAKEKENGTVNVRTRDNAVRGEVALDKLISKFRRFADEYVADTEKSEEWA", "note": "Lines come from different studies, so protocols differ."}
{"Substance": "enzyme (Pseudanabaena biceps, UniProt L8N0N6)", "substrate": "NC(=O)c1ccc[n+]([C@@H]2O[C@H](COP(=O)(O)OP(=O)(O)OC[C@H]3O[C@@H](n4cnc5c(N)ncnc54)[C@H](O)[C@@H]3O)[C@@H](O)[C@H]2O)c1", "pH": "pH 7.4", "temperature": "30 °C", "notes": "apparent, cofactor varied", "Km": "920 µM"}
{"Substance": "B1 (NUDT12)", "substrate": "Nc1ncnc2c1ncn2[C@@H]1O[C@H](COP(=O)(O)OP(=O)(O)OP(=O)(O)OP(=O)(O)OP(=O)(O)OC[C@H]2O[C@@H](n3cnc4c(N)ncnc43)[C@H](O)[C@@H]2O)[C@@H](O)[C@H]1O", "with": "Mg2+", "Km": "390 µM"}
{"Substance": "B2 (FDH1)", "substrate": "O=CO", "pH": "pH 7.5", "temperature": "30 °C", "Km": "3850 µM"}
{"Substance": "B3 (enzyme)", "substrate": "NC(=O)C1=CN([C@@H]2O[C@H](COP(=O)(O)OP(=O)(O)OC[C@H]3O[C@@H](n4cnc5c(N)ncnc54)[C@H](OP(=O)(O)O)[C@@H]3O)[C@@H](O)[C@H]2O)C=CC1", "pH": "pH 7", "temperature": "30 °C", "notes": "cofactor varied", "Km": "25.9 µM"}
{"Substance": "B4 (enzyme)", "substrate": "C[C@@H]1O[C@@H](Oc2ccc([N+](=O)[O-])cc2Cl)[C@@H](O)[C@H](O)[C@@H]1O", "pH": "pH 6.4", "temperature": "37 °C", "Km": "1830 µM"}
{"Substance": "B5 (enzyme)", "substrate": "CCCCCCC[C@@H](O)CC(=O)O", "with": "NAD+", "Km": "60 µM"}
{"Substance": "HNL C81L/E79H/G176S/H103V/K236M/N104T/T11G/V106F (Hevea brasiliensis)", "substrate": "CC(=O)Oc1ccc([N+](=O)[O-])cc1", "pH": "pH 7.2", "temperature": "22 °C", "Km": "80 µM"}
{"Substance": "enzyme (Saccharina japonica, UniProt A0A097IUE3)", "substrate": "C=C(OP(=O)(O)O)C(=O)O", "pH": "pH 6.5", "temperature": "25 °C", "with": "2 mM ADP", "Km": "1100 µM"}
{"Substance": "B6 (enzyme)", "substrate": "C[C@@H](O)[C@H](N)C(=O)O", "pH": "pH 7.5", "temperature": "37 °C", "with": "ATP", "Km": "2450 µM"}
{"note": "For quick reference, copied from above:"}
{"Substance": "B2 (FDH1)", "substrate": "O=CO", "pH": "pH 7.5", "temperature": "30 °C", "Km": "3850 µM"}
